Published values pooled from the literature.
A part holds a random share of what one study measured. Positions count from the first letter of the parent shown.

Set 1
Target: RING finger protein unkempt homolog, zinc fingers 1-6, GST-SBP tag (UNK, Homo sapiens, UniProt Q9C0B0, residues 30-357)
Method: RNA Bind-n-Seq
Molecule type: RNA
Medium: in vitro
Concentration: not given
Setting: RNA with constant flanks, human and mouse sites, ends assumed
Reference: input RNA pool
Reading: higher = stronger binding
Construct (chain): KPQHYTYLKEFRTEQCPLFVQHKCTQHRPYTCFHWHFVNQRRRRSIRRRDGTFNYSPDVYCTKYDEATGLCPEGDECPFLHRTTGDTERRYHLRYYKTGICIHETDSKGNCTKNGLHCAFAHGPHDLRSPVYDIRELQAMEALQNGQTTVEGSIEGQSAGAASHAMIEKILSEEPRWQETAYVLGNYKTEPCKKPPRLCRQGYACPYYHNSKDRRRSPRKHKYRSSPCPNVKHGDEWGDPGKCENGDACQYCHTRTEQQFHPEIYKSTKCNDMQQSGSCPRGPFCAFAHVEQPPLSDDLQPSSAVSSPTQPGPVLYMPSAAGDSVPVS
Oligonucleotide | bound/input enrichment [ratio]
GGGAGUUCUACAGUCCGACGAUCCUGAGCUAAAGGAGUUAGCAUCUUUAUUUUUGUAUCAAAAAUAAAGGUUAUUUUGAAAUUAUUAGGAUUUUUACACAAUUCUGAAAUCUGUUGCUUUUGUAAACAAAUUGUUUGAUCUUACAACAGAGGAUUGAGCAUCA | 35.6
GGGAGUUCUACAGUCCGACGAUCUCUGCGGAAGUCCCCGAGGCAGCCUCCGCGGAGGAGCAGAAGGAAAUGGAAGAUAAAGUGACUAGUCCAGAGAAAGCAGAAGAAGCAAAAUUAAAAGCAAGAUAUCCUCAUCUGGGACAACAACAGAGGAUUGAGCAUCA | 0.444
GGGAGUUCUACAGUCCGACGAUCUGAUUUUGUCUAUUUUCAACUAAUGGAGAACUAGCUGUAACUUGAACAAGGAUUACUGUACUGGACAACUUCAGAACAUUGCUCACAAUGUCAUCAAACAGGAGUCAGAAUCCUCAUGGACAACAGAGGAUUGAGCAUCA | 0.0874
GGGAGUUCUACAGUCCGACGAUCGCUCACUUUGAUCUUGCCUUGGCACGUUCUGCUAAACUUCGAAACCCUACAAAUGACCUCUUGGUACUUCAUCUCUCUGACCUCAUUCGCAUGGCAUUCAUGGCUGCAACUGAUCAUAGCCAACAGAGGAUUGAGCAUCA | 0.156
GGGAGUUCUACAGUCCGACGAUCCCCCCACCUCCGCCCCUCCCCCCAGCCUCCCCCAUCAAAGCCCAGUUGGUGUCCCCGCCUGCCCCUCCAACCAAGGUGAAUCCAUCUGUGGUGCCACCUCCUCUACCCUGCGCACCUCCUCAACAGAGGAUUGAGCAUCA | 1.32
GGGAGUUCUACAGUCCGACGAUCGAUUAUGUGCCUGCUUUAAAAGGUUUGGGUGAAUGCCAUCUUAUGAUGGCAAAAGCAGCUCUAGUUGAUUAUCUUGAUGGAAAAGCCGUAGACUACAUAGAAAAAGCACUGGAAUAUUUUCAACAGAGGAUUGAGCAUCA | 3.13
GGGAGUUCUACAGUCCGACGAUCGGAUAUGUGUCUGGACUGGAGGUCCGUGAAACCUUCCUGAAAACAGGUUUACCUUCUGCCUUGCUAGCCCACAUUUGGUCACUAUGUGACACAAAGGGCUGUGGGAAGCUUUCAAAAGACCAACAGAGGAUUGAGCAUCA | 0.179

Set 2
Target: CCNF, cyclin fold, Cln2 fusion (human)
Method: yeast growth competition, sequencing
Medium: yeast
Setting: strong parent motif
Reference: not given
Reading: higher = stronger binding
Starting sequence: CDC6 docking peptide (human); TLKGRRLVFDNQL
Substitution | normalised enrichment score
F9N | 0.173
T1H | 9.29
R5Q | 0.878
V8W | 8.15
L7Y | 1.36
K3T | 8.73
G4T | 4.74

Set 3
Target: Interferon regulatory factor 7, full length, phosphomimetic (IRF7, Homo sapiens, UniProt Q92985, residues 1-503, S471D/S472D/S475D/S476D/S477D/S483D/S484D/S487D)
Chain of UniProt Q92985 (whole entry, unmodified, looked up): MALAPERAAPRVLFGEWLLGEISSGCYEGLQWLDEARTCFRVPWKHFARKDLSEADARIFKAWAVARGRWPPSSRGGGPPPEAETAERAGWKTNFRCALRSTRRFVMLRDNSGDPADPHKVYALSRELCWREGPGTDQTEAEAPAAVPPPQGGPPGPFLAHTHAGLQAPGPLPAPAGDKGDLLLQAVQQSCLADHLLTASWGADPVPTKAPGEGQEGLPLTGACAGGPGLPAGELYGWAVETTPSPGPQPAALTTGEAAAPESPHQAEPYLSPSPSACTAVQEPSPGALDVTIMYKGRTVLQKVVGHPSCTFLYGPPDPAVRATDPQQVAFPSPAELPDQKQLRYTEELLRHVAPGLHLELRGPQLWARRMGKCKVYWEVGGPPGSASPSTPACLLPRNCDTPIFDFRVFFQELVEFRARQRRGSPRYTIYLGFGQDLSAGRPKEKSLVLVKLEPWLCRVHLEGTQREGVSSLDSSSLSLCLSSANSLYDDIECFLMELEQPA
Method: protein-binding microarray
Molecule type: double-stranded DNA, one strand shown
Medium: in vitro
Concentration: 2200 nM top
Setting: 60-bp whole probe
Added: salmon DNA 0.4 mg/ml
Reference: random background probes
Reading: higher = stronger binding
All sequences stand within: GCCTAGCAC … GTCTTGATTCGCTTGACGCTGCTG
Oligonucleotide | fitted relative affinity
GACGGCTTCCTTTTCCTGACGTGCTAG | 1.32 z-score
ACCTGTATATCTTCAGCGGGGTGCTAG | 0.641 z-score
TCACATATACACTGTGTAACTGTGCTA | 0.929 z-score
GACTATTTCAGTTTCGAGACGTGCTAG | 5.25 z-score
ACTCCTATCCAAGTTCCCCTGGTGCTA | 1.33 z-score

Single results of other studies
Molecule | target | assay | system | setting | how to read | quantity | result
PhoQ, residues 284 288 289 292 302 303 ASVMEA | PhoP, residues 12 14 15 18 19 SQCLL (Escherichia coli, UniProt P23836) | Sort-seq, refers to: YFP reporter | E. coli | PhoQ-PhoP variant library, added: 10 µM Mg2+ | reference: high Mg2+ state, higher = stronger signaling | fold induction | 14.6

For quick reference, copied from above (set 1):
Oligonucleotide | bound/input enrichment [ratio]
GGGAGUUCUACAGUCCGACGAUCUCUGCGGAAGUCCCCGAGGCAGCCUCCGCGGAGGAGCAGAAGGAAAUGGAAGAUAAAGUGACUAGUCCAGAGAAAGCAGAAGAAGCAAAAUUAAAAGCAAGAUAUCCUCAUCUGGGACAACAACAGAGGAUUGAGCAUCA | 0.444
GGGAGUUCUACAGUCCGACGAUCUGAUUUUGUCUAUUUUCAACUAAUGGAGAACUAGCUGUAACUUGAACAAGGAUUACUGUACUGGACAACUUCAGAACAUUGCUCACAAUGUCAUCAAACAGGAGUCAGAAUCCUCAUGGACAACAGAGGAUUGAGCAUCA | 0.0874
